{"data": "Experimental data pooled from the literature", "matrix": "plasma", "note": "Compare with care: the assays were run in different laboratories."}
{"SMILES": "Cc1ccc2oc(-c3c4c(N)n[nH]c(=O)c4nn3-c3ccc(NC(=O)/C=C/CN(C)C)cc3)c(C)c2c1", "species": "mouse", "route": "intraperitoneal", "dose": "3 mg/kg", "endpoint": "AUC(0-inf)", "result": "704 ng·h/mL"}
{"SMILES": "C[C@H]1CN(C(=O)c2cn(-c3ccnc(N)n3)c3cc(C#CC4(O)CCCCC4)ccc23)CCN1", "species": "CD-1 mouse", "route": "oral", "dose": "10 mg/kg", "endpoint": "AUC(0-inf)", "result": "169 ng·h/mL"}
{"SMILES": "CN[C@@H]1[C@H](O)[C@H](NC)[C@H]2O[C@]3(O)[C@H](O[C@@H]2[C@H]1O)O[C@H](C)C[C@@]3(O)CNCCc1nccs1", "species": "male BALB/c mouse", "route": "intravenous", "dose": "10 mg/kg", "endpoint": "AUC(0-inf)", "result": "6950 ng·h/mL"}
{"SMILES": "COc1cccc2c1C(=O)c1c(O)c3c(c(O)c1C2=O)C[C@@](O)(C(=O)CO)C[C@@H]3O[C@H]1C[C@H](N)[C@@H](O)[C@H](C)O1", "species": "male Kunming mouse", "route": "intravenous", "dose": "5 mg/kg", "endpoint": "AUC(0-inf)", "result": "19300 ng·h/mL"}
{"SMILES": "CCC(=C(c1ccc(Cl)cc1)c1ccc(OCCN2CCOCC2)cc1)c1ccc(OC)cc1", "species": "male C57BL/6 mouse", "route": "oral", "dose": "400 mg/kg", "setting": "single dose", "endpoint": "AUC(0-inf)", "result": "119000 ng·h/mL"}
{"SMILES": "[2H]C([2H])(N)C([2H])([2H])NC(=O)c1cc(C2CC2)nc2c1cnn2C(C)C", "species": "female BALB/c mouse", "route": "intraperitoneal", "dose": "50 mg/kg", "endpoint": "AUC(0-inf)", "result": "10700 ng·h/mL"}
{"SMILES": "CN1/C(=C/C=C/c2cc(-c3ccccc3)cc(-c3ccccc3)[o+]2)C(C)(C)c2ccccc21", "species": "male CD-1 mouse", "route": "intravenous", "dose": "1 mg/kg", "setting": "single dose", "endpoint": "AUC(0-inf)", "result": "27.9 ng·h/mL"}
{"SMILES": "O=C1C2=C(CCN(Cc3ccccc3)C2)N2CCN=C2N1Cc1ccc(C(F)(F)F)cc1", "species": "female CD-1 mouse", "route": "oral", "dose": "50 mg/kg", "endpoint": "AUC(0-inf)", "result": "6840 ng·h/mL"}
{"SMILES": "CCC/C(=C\\C1=C(F)C(=O)c2ccccc2C1=O)C(=O)N(CC)CC", "species": "mouse", "route": "oral", "dose": "25 mg/kg", "endpoint": "AUC(0-inf)", "result": "22800 ng·h/mL"}
{"SMILES": "C[N+]1(CC(=O)OC2CCCCCCCCCCC2)CCCCC1", "species": "mouse", "route": "intraperitoneal", "dose": "1 mg/kg", "setting": "single dose", "endpoint": "AUC(0-t)", "result": "7 ng·h/mL"}
{"SMILES": "CCC/C(=C\\C1=C(C(F)(F)F)C(=O)c2ccccc2C1=O)C(=O)N(CC)CC", "species": "mouse", "route": "oral", "dose": "25 mg/kg", "endpoint": "AUC(0-inf)", "result": "< 10 ng·h/mL"}
{"SMILES": "COC(=O)C1OC(Oc2c(-c3ccccc3)oc3cc(O)c(O)c(O)c3c2=O)C(O)C(O)C1O (centres unmarked)", "species": "BALB/c mouse", "route": "oral", "dose": "10 mg/kg", "setting": "single dose", "endpoint": "AUC(0-inf)", "result": "44.3 ng·h/mL"}
{"SMILES": "CC(C)(O)Cn1nc(-c2ccccc2)c2c(Cl)c(-c3ccccc3)nnc21", "species": "mouse", "route": "intraperitoneal", "dose": "3 mg/kg", "endpoint": "AUC(0-inf)", "result": "1.76 µM·h"}
{"SMILES": "O=C1OC2(c3ccccc31)c1cc(I)c(O)c(I)c1Oc1c2cc(I)c(O)c1I", "species": "female C57BL/6 mouse", "route": "oral", "dose": "100 mg/kg", "endpoint": "AUC(0-inf)", "result": "860 ng·h/mL"}
{"note": "Repeated from above:"}
{"SMILES": "C[N+]1(CC(=O)OC2CCCCCCCCCCC2)CCCCC1", "species": "mouse", "route": "intraperitoneal", "dose": "1 mg/kg", "setting": "single dose", "endpoint": "AUC(0-t)", "result": "7 ng·h/mL"}
{"SMILES": "CCC/C(=C\\C1=C(C(F)(F)F)C(=O)c2ccccc2C1=O)C(=O)N(CC)CC", "species": "mouse", "route": "oral", "dose": "25 mg/kg", "endpoint": "AUC(0-inf)", "result": "< 10 ng·h/mL"}
